{"data": "Experimental data collected from several papers", "note": "A part holds a random share of what one study measured. “And” joins repeats or separate records; there may be more than shown.", "UniProt Q5XXA6, sequence (whole entry, unmodified, looked up)": "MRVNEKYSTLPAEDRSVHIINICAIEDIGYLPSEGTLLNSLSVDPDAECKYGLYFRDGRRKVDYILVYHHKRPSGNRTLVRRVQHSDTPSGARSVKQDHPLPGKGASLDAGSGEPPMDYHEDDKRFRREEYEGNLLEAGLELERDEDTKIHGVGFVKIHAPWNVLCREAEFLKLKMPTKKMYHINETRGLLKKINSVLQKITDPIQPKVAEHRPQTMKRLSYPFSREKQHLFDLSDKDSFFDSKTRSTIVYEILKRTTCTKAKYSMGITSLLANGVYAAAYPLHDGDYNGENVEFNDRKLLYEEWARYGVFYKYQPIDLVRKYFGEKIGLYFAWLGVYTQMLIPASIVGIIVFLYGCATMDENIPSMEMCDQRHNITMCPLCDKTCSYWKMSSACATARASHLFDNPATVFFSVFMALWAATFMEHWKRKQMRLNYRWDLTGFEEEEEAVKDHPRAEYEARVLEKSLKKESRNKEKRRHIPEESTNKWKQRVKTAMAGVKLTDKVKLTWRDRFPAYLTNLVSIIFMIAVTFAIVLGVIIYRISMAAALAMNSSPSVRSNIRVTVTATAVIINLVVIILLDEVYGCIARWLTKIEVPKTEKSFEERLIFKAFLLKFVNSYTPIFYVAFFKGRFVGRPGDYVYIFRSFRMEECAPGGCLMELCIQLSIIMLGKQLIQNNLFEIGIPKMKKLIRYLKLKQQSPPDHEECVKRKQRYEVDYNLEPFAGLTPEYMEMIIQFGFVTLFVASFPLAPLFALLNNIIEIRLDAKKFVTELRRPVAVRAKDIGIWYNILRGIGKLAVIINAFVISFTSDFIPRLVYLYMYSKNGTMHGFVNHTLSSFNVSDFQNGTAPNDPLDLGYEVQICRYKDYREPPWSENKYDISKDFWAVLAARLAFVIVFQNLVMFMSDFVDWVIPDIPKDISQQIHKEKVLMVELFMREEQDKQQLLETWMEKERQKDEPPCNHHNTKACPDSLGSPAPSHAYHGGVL", "UniProt Q8WTQ7, sequence (whole entry, looked up)": "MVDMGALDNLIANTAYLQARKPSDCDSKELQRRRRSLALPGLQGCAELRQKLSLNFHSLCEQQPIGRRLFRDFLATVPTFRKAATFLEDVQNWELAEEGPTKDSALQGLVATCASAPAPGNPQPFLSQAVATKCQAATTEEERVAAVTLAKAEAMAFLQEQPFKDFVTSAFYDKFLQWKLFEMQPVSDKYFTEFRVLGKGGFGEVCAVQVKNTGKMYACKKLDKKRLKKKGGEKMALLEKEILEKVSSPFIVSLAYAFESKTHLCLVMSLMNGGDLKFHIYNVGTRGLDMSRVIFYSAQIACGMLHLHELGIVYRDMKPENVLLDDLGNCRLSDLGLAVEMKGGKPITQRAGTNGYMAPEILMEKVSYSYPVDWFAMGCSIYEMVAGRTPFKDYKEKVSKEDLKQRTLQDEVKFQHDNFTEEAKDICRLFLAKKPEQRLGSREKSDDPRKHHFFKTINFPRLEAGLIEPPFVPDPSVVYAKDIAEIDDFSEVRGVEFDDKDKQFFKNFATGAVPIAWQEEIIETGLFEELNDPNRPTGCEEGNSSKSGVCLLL", "UniProt P42336, sequence (whole entry, unmodified, looked up)": "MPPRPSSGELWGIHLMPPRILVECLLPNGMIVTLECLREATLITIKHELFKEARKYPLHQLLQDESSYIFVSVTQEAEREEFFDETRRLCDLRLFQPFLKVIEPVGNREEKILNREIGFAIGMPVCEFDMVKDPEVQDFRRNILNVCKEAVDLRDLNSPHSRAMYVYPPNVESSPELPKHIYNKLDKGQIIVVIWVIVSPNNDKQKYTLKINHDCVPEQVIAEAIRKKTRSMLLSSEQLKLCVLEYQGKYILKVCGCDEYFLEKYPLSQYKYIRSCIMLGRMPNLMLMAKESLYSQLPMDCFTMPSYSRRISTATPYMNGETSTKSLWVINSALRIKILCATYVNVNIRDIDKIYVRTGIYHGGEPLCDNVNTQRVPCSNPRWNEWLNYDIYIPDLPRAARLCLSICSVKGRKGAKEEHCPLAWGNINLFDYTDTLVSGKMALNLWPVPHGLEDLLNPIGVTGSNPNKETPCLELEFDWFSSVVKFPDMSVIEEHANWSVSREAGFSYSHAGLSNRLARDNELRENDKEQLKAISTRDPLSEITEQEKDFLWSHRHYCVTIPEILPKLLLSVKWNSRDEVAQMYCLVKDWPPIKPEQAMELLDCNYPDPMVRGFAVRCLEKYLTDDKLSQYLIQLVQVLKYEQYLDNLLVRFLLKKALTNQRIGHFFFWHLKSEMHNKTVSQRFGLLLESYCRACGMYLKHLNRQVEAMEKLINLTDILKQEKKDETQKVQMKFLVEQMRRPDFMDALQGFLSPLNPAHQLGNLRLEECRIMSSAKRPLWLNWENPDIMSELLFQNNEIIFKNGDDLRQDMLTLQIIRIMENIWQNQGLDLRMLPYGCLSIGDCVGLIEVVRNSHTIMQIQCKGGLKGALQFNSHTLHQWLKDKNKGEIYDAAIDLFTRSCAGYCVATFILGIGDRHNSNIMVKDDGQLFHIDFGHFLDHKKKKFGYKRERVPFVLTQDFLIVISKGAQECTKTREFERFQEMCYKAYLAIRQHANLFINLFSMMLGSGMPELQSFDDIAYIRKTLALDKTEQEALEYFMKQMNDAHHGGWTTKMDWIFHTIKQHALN", "UniProt P14616, sequence (whole entry, looked up)": "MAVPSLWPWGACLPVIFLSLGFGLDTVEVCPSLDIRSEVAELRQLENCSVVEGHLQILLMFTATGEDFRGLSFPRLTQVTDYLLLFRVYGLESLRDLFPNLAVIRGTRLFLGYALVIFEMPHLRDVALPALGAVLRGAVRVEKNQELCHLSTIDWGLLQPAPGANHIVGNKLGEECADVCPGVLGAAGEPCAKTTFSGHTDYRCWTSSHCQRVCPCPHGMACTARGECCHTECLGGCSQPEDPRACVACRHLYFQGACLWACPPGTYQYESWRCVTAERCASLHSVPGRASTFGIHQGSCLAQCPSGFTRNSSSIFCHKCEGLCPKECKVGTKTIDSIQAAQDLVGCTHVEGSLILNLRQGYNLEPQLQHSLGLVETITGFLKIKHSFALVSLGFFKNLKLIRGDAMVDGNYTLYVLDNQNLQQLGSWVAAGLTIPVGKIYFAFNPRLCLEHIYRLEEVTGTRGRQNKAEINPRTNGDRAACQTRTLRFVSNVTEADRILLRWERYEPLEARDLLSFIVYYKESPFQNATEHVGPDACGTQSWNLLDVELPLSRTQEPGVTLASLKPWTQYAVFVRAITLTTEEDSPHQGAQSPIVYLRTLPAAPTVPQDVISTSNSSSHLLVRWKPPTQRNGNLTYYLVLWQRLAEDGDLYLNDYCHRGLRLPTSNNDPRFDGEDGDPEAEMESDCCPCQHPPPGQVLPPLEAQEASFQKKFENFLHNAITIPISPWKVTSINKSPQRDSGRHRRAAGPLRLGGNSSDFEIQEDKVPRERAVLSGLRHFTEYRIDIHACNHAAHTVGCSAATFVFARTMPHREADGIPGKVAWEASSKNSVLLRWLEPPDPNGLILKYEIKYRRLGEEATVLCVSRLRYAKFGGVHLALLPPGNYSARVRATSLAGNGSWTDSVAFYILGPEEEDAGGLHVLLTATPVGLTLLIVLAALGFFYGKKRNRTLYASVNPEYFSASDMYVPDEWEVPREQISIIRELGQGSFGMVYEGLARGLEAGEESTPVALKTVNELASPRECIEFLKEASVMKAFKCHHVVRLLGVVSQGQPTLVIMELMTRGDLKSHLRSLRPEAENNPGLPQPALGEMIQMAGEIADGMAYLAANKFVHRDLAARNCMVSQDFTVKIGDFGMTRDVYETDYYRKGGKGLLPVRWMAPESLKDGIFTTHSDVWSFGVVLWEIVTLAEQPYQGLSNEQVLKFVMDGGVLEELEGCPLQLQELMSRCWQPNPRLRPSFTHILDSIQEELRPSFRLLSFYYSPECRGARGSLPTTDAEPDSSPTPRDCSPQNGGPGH", "UniProt P27448, sequence (whole entry, looked up)": "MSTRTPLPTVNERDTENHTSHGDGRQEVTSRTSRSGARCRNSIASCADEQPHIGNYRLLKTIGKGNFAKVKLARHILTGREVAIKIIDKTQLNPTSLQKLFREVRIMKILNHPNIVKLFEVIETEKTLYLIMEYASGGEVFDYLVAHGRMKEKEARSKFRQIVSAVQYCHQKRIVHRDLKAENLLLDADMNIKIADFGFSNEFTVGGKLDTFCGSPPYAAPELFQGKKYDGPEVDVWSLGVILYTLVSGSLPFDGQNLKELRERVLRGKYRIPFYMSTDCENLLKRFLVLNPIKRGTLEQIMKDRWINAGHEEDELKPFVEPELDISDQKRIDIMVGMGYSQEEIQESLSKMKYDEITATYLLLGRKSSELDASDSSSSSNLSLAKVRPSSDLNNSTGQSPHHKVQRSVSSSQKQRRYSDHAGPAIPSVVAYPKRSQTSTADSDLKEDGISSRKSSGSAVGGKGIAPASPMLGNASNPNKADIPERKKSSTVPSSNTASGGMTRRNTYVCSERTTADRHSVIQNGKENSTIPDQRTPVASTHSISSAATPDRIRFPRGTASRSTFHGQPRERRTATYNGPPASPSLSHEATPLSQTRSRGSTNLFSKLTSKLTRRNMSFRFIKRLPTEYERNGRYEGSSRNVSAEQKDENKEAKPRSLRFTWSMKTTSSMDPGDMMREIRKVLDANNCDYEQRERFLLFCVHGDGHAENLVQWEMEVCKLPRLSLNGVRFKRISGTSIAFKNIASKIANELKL", "UniProt Q00532, sequence (whole entry, looked up)": "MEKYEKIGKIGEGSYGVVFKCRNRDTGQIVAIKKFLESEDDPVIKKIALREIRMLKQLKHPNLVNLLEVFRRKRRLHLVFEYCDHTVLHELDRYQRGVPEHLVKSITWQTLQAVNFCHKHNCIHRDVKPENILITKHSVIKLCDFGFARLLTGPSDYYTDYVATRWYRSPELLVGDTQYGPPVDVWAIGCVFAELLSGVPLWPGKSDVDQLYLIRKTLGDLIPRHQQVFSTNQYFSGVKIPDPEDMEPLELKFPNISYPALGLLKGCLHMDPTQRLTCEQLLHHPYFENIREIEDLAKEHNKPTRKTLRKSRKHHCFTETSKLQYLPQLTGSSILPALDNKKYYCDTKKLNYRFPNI"}
{"data": "Block 1", "cell line": "mouse MPNST tumor cells", "method": "high-content nuclear imaging", "measured": "cell number", "concentration": "10 µM", "time": "12 h", "setting": "mean of 2 replicates", "relative to": "plate mean", "reading": "higher = more cells"}
{"SMILES": "O=C(Nc1ccc(F)cc1)N1CCc2ccccc2C1c1ccc(C(F)(F)F)cc1 (centres unmarked)", "nuclei count": "1.4 z-score"}
{"SMILES": "NCCc1ccc(O)c(O)c1", "nuclei count": "0.873 z-score and 5.69 z-score"}
{"SMILES": "CC(=O)NC[C@H]1CN(c2ccc(N3CCOCC3)c(F)c2)C(=O)O1", "nuclei count": "1.48 z-score and -0.371 z-score"}
{"SMILES": "COc1ccc(CC2NCCc3c2[nH]c2ccc(C)cc32)cc1OC (centres unmarked)", "nuclei count": "2.39 z-score"}
{"SMILES": "COc1cc(NC(=O)c2cccc(-n3cc(NC(=O)Nc4cccc(C)c4)cn3)c2)cc(OC)c1OC", "nuclei count": "-3.45 z-score"}
{"SMILES": "Cc1nc(Nc2ccc(F)cc2)sc1C(=O)c1ccsc1", "nuclei count": "2.83 z-score"}
{"data": "Block 2", "species": "mouse", "sample": "microsomes or S9", "concentration": "2 µM", "time": "0.5 h"}
{"SMILES": "CCOc1ccccc1NC(=O)c1cc2sccc2n1C", "remaining compound": "0.0411%"}
{"SMILES": "CCS(=O)(=O)c1nc(S(=O)(=O)c2ccc(Cl)cc2)c(NC2CCCC2)s1", "remaining compound": "0.0898%"}
{"SMILES": "CN(C(=O)CN1CCc2nc(N3CCCC3)[nH]c(=O)c2C1)C1CCCCC1", "remaining compound": "9.25%"}
{"SMILES": "Cc1nnc2c(N3CCN(C(=O)c4n[nH]c5c4CCCC5)CC3)nccn12", "remaining compound": "0.0275%"}
{"data": "Block 3", "SMILES": "CCCCN(CCCC)C(=O)CN1C[C@@H](c2cc(OC)c3c(c2)OCO3)[C@H](C(=O)O)[C@H]1CC(C)(C)CCC", "read-out": "cell-free assay", "method": "competition with immobilised ligand", "concentration": "1 µM"}
{"target": "RIPK2 (Homo sapiens, UniProt O43353)", "remaining binding": "100%"}
{"target": "PRKACA (Homo sapiens, UniProt P17612)", "remaining binding": "81.9%"}
{"target": "GRK7 (Homo sapiens, UniProt Q8WTQ7)", "remaining binding": "90.8%"}
{"target": "PIP4K2B (Homo sapiens, UniProt P78356)", "remaining binding": "59.8%"}
{"target": "EGFR (Homo sapiens, UniProt P00533, G719S)", "remaining binding": "100%"}
{"target": "INSRR (Homo sapiens, UniProt P14616)", "remaining binding": "93.2%"}
{"target": "MARK3 (Homo sapiens, UniProt P27448)", "remaining binding": "93.7%"}
{"target": "CDKL1 (Homo sapiens, UniProt Q00532)", "remaining binding": "74.9%"}
{"target": "ERBB2 (Homo sapiens, UniProt P04626)", "remaining binding": "92.1%"}
{"target": "PIK3CA (Homo sapiens, UniProt P42336, E545A)", "remaining binding": "77.9%"}
{"target": "FGR (Homo sapiens, UniProt P09769)", "remaining binding": "92.4%"}
{"target": "EGFR (Homo sapiens, UniProt P00533)", "remaining binding": "100%"}
{"target": "Tyrosine-protein kinase ABL1, non-phosphorylated (ABL1, Homo sapiens, UniProt P00519, Q252H)", "remaining binding": "100%"}
{"target": "KDR (Homo sapiens, UniProt P35968)", "remaining binding": "88.1%"}
{"target": "STK32C (Homo sapiens, UniProt Q86UX6)", "remaining binding": "100%"}
{"target": "SRMS (Homo sapiens, UniProt Q9H3Y6)", "remaining binding": "90.6%"}
{"data": "Block 4", "SMILES": "C=CCc1ccc(O)c(-c2ccc(O)c(CC=C)c2)c1", "read-out": "chloride current", "method": "whole-cell voltage clamp"}
{"target": "Anoctamin-1 (ANO1, Homo sapiens, UniProt Q5XXA6, del476-501/F803Y)", "test": "inhibitor", "conditions": "80 mV holding voltage", "IC50": "12 µM"}
{"target": "Anoctamin-1 (ANO1, Homo sapiens, UniProt Q5XXA6, del476-501)", "test": "inhibitor", "conditions": "-60 mV voltage, added: 300 nM Ca2+", "IC50": "2.82 µM"}
{"target": "Anoctamin-1 (ANO1, Homo sapiens, UniProt Q5XXA6, del476-501/R631D)", "test": "inhibitor", "conditions": "R605D mutant at -80 mV", "IC50": "18.5 µM"}
{"target": "Anoctamin-1 (ANO1, Homo sapiens, UniProt Q5XXA6, del476-501/R561A)", "conditions": "membrane voltage -40 mV", "IC50": "6.57 µM"}
{"target": "Anoctamin-1 (ANO1, Homo sapiens, UniProt Q5XXA6, del476-501/F627A)", "conditions": "membrane voltage -20 mV", "IC50": "5.53 µM"}
{"data": "Further values, each from its own experiment"}
{"SMILES": "CC(=O)N[C@@H](Cc1c[nH]c2ccccc12)C(=O)N[C@@H](CCC(=O)C=[N+]=[N-])C(=O)OC(C)C", "test": "UPLC-MS/MS", "system": "EL4 tumor, C57BL/6 CES1-/- mice, tumor", "conditions": "subcutaneous, 0.3 mg/kg DON equivalent daily, 5 days", "scale": "higher = more metabolite", "endpoint": "ribonate level", "value": "1.6e+07 a.u. and 1.24e+07 a.u. and 2.47e+07 a.u. and 2.57e+07 a.u. and 2.79e+07 a.u. and 2.33e+07 a.u."}
